{"data": "Values quoted from earlier work, collected from citations in different studies", "note": "Protocols differ between the studies behind these lines. ± gives the spread as reported."}
{"SMILES": "NC(=O)c1ncn([C@@H]2O[C@H](CO)[C@@H](O)[C@H]2O)n1", "tested on": "Chikungunya virus", "assay": "viral replication", "test system": "Vero", "measurement": "EC50", "result": "2.42 µM"}
{"SMILES": "CO/N=C(\\C(=O)N[C@@H]1C(=O)N2C(C(=O)O)=C(COC(C)=O)CS[C@H]12)c1csc(N)n1", "tested on": "Enterobacter cloacae", "test system": "clinical isolate RKI-No_215/15", "measurement": "MIC", "result": "≤ 1 µg/mL"}
{"SMILES": "O=C(O[C@@H]1[C@@H](O)[C@H](Oc2cc(O)c3c(c2)O[C@H](c2ccccc2)CC3=O)O[C@@H]2COC(=O)c3cc(O)c(O)c(O)c3-c3c(cc(O)c(O)c3O)C(=O)O[C@@H]12)c1cc(O)c(O)c(O)c1", "tested on": "SARS-CoV-2 main protease", "assay": "enzyme activity, inhibitor", "setting": "concentration not given", "measurement": "inhibition", "result": "inhibited"}
{"SMILES": "Cc1cc(O)c2c(c1)C(=O)c1cc(O)cc(O)c1C2=O", "tested on": "SARS-CoV-2", "assay": "viral replication", "setting": "literature value", "measurement": "EC50", "result": "25 to 50 µM"}
{"SMILES": "CC1COc2ccccc2N1C(=O)C(Cl)Cl (stereo not shown)", "tested on": "glutathione S-transferase", "test system": "female rat liver cytosol", "setting": "together with: GSH", "measurement": "scaled intrinsic clearance", "result": "26 mL/min/g liver"}
{"SMILES": "Fc1ccccc1Cc1nc(-c2nc(C(F)(F)F)n[nH]2)cn2ccnc12", "assay": "equilibrium dialysis", "test system": "human plasma", "setting": "1 and 10 µM", "measurement": "plasma protein binding", "result": "98.9%"}
{"SMILES": "Cc1cc(-c2nccc3c2ccn3CC(=O)Nc2ccc(-c3cnccn3)cn2)ccn1", "test system": "rat, bone marrow", "setting": "in vivo genotoxicity", "measurement": "micronucleus test result", "result": "negative"}
{"SMILES": "O=c1cc(-c2ccc(O)c(O)c2)oc2cc(O)cc(O)c12", "tested on": "SARS-CoV-2", "assay": "viral replication", "setting": "literature value", "measurement": "EC50", "result": "10 to 50 µM"}
{"SMILES": "O=C(O[C@@H]1Cc2c(O)cc(O)cc2O[C@@H]1c1cc(=O)c(O)c2c(O)c(O)cc([C@H]3Oc4cc(O)cc(O)c4C[C@H]3O)c2c1)c1cc(O)c(O)c(O)c1", "tested on": "SARS-CoV-2", "test system": "Vero", "setting": "concentration not given", "measurement": "viral count reduction", "result": "75%"}
{"SMILES": "O=C1c2ccccc2C(=O)c2oc(-c3ccccc3)nc21", "tested on": "SARS-CoV-2 papain-like protease", "assay": "enzyme activity, inhibitor", "setting": "incomplete inhibition, apparent value", "measurement": "IC50", "result": "0.56 µM"}
{"SMILES": "CCC(CC)COC(=O)[C@H](C)N[P@](=O)(OC[C@H]1O[C@@](C#N)(c2ccc3c(N)ncnn23)[C@H](O)[C@@H]1O)Oc1ccccc1", "tested on": "SARS-CoV-2", "assay": "viral replication", "test system": "Caco-2", "measurement": "EC90", "result": "0.2 ± 0.07 µM"}
{"SMILES": "O=[N+]([O-])c1ccc(O[C@H]2O[C@H](CO)[C@@H](O)[C@H](O)[C@@H]2O)cc1", "tested on": "Beta-mannosidase (Bacteroides thetaiotaomicron, UniProt Q8AAK6)", "assay": "substrate", "measurement": "kcat", "result": "128 s⁻¹"}
{"SMILES": "Cn1c(C[S+]([O-])c2ccccc2C(F)(F)F)c(C(=O)OC(C)(C)C)c2cc(O)ccc21 (stereo not shown)", "tested on": "Chikungunya virus", "assay": "viral replication", "test system": "Vero", "measurement": "EC50", "result": "6.5 µM"}
{"note": "Repeated from above:"}
{"SMILES": "Cc1cc(O)c2c(c1)C(=O)c1cc(O)cc(O)c1C2=O", "tested on": "SARS-CoV-2", "assay": "viral replication", "setting": "literature value", "measurement": "EC50", "result": "25 to 50 µM"}
{"SMILES": "CC1COc2ccccc2N1C(=O)C(Cl)Cl (stereo not shown)", "tested on": "glutathione S-transferase", "test system": "female rat liver cytosol", "setting": "together with: GSH", "measurement": "scaled intrinsic clearance", "result": "26 mL/min/g liver"}
